{"data": "Measured values gathered from unrelated publications", "note": "Parts stem from different laboratories: compare values within a part only.", "chain of UniProt Q09013 (whole entry, looked up)": "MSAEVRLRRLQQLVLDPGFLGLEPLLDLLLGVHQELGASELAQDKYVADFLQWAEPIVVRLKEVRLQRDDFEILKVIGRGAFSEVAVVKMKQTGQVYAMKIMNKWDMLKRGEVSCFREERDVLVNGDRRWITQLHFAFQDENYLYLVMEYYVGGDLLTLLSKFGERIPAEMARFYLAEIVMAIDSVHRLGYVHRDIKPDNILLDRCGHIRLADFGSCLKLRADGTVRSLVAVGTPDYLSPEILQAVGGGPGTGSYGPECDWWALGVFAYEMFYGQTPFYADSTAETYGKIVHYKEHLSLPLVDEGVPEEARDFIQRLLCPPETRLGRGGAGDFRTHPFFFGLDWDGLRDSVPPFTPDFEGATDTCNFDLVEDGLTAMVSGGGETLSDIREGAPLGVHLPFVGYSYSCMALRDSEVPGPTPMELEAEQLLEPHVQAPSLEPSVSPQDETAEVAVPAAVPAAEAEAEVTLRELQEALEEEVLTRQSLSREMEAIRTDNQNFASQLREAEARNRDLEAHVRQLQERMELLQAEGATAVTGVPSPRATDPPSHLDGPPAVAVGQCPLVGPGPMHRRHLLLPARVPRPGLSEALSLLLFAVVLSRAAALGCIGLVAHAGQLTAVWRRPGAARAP", "chain of UniProt Q9UF33 (whole entry, looked up)": "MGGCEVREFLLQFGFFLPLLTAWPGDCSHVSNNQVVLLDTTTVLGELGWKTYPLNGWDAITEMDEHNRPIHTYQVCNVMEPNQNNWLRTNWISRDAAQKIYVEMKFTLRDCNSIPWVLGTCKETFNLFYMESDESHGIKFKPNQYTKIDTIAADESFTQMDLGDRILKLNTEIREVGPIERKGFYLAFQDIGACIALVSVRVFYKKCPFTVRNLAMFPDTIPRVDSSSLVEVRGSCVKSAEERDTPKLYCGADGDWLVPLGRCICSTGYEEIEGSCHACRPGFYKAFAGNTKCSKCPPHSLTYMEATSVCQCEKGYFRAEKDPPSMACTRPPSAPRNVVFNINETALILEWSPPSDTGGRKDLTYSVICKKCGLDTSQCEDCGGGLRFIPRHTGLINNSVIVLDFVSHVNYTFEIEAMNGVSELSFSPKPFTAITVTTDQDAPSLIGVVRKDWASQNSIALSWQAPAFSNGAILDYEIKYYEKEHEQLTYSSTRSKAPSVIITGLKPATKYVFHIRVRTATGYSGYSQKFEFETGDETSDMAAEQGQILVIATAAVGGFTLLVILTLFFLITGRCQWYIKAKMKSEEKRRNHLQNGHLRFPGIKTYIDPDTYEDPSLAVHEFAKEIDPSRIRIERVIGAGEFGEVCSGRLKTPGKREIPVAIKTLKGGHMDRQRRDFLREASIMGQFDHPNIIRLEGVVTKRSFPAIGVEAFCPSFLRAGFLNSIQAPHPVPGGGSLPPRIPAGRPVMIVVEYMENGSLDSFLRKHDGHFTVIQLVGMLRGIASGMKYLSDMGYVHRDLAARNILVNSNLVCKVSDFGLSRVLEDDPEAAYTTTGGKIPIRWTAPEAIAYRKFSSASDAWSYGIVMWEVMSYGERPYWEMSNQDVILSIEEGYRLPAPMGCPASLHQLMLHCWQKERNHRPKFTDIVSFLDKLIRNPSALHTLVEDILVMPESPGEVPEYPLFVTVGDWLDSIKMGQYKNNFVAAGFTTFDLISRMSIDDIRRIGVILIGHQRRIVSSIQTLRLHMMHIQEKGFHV", "chain of UniProt O94768 (whole entry, looked up)": "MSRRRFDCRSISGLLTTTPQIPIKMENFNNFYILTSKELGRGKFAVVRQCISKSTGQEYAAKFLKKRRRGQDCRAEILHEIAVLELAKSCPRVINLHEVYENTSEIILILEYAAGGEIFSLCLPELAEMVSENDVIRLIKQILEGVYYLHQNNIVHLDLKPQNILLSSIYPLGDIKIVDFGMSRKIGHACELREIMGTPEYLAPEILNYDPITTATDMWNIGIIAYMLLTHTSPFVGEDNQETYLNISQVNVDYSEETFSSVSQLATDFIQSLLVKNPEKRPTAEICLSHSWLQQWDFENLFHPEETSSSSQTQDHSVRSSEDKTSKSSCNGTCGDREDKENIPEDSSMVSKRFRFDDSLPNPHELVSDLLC", "chain of UniProt P42685 (whole entry, looked up)": "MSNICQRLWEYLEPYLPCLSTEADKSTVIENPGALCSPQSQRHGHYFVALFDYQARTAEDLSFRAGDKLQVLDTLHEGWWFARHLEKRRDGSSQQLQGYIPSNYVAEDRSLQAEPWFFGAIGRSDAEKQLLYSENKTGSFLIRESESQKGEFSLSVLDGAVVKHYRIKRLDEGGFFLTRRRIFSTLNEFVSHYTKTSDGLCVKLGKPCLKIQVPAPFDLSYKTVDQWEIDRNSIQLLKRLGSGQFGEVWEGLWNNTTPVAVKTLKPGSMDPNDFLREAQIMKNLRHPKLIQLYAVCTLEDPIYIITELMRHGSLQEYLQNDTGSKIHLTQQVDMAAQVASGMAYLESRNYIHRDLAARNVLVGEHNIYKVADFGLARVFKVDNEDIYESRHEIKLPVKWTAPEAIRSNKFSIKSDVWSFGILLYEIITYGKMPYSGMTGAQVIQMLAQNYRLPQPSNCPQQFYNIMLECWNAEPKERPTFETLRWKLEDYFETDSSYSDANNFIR", "chain of UniProt Q9HC98 (whole entry, looked up)": "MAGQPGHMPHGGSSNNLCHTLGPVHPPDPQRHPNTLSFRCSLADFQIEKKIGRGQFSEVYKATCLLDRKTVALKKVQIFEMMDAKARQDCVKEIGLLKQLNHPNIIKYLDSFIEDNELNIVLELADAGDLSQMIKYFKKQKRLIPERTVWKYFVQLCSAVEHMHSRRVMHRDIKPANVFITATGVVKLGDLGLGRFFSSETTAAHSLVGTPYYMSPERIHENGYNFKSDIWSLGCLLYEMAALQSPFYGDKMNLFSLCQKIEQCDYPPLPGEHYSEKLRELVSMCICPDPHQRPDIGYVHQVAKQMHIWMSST", "chain of UniProt Q8NI60 (whole entry, looked up)": "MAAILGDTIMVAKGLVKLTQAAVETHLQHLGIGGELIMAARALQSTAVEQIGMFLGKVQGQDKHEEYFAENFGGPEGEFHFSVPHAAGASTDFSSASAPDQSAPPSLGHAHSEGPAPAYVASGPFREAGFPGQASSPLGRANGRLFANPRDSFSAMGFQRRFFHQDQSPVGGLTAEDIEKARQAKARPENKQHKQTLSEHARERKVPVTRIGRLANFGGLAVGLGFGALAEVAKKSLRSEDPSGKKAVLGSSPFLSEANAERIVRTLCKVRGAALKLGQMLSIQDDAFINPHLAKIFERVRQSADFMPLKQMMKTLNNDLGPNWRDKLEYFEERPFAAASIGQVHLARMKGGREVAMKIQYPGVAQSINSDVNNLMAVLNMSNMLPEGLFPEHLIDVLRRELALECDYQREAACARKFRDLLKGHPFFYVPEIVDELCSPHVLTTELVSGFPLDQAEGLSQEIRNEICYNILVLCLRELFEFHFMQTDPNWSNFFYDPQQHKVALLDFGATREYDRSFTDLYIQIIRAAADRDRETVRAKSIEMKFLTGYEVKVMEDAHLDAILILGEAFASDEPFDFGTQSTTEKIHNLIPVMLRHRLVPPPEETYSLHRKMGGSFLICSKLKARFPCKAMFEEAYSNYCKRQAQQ"}
{"data": "Series 1", "target": "Interferon regulatory factor 3, full length, phosphomimetic (IRF3, Homo sapiens, UniProt Q14653, residues 1-427, S386D/S396D/S398D/S402D/T404D/S405D)", "method": "protein-binding microarray", "form": "double-stranded DNA, one strand shown", "sample": "in vitro", "tested at": "2540 nM top", "notes": "60-bp whole probe", "with": "salmon DNA 0.4 mg/ml", "relative to": "random background probes", "direction": "higher = stronger binding", "all sequences stand within": "GCCTAGCAC … GTCTTGATTCGCTTGACGCTGCTG", "Target sequence (chain)": "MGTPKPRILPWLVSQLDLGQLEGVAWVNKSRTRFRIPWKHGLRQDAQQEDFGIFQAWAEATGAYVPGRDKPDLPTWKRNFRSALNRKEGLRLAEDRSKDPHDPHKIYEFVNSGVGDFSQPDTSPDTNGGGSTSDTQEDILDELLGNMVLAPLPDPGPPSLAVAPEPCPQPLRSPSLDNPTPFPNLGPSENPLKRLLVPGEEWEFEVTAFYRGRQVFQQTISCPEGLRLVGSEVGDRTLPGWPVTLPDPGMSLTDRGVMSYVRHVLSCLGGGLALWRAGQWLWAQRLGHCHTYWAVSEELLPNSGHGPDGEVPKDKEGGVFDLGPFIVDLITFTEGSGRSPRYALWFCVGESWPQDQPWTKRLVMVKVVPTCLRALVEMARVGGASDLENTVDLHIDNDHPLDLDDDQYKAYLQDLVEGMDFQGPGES"}
{"Sequence": "TTTTTTTCCTAATTGAACCCGTGCTAG", "fitted relative affinity [z-score]": 3.86}
{"Sequence": "TTAGGTCTCGGACTGTGTTAGTGCTAG", "fitted relative affinity [z-score]": -0.298}
{"Sequence": "GACGGACTGGACTTACGGGACGTGCTA", "fitted relative affinity [z-score]": -0.583}
{"Sequence": "GGCGGTTTCGGTATCGGGACGTGCTAG", "fitted relative affinity [z-score]": 8.16}
{"Sequence": "GACGGACTGGACTATCAGGACGTGCTA", "fitted relative affinity [z-score]": -0.343}
{"Sequence": "TTCTGAACCATTTTGGTTTTGTGCTAG", "fitted relative affinity [z-score]": 2.3}
{"Sequence": "GACGATATCGGGACTGGAGCCGTGCTA", "fitted relative affinity [z-score]": -0.0188}
{"Sequence": "GACGATTTCAGTTCCGTGACGTGCTAG", "fitted relative affinity [z-score]": 2.81}
{"data": "Series 2", "target": "TAR DNA-binding protein 43, full length, His tag (TARDBP, Homo sapiens, UniProt Q13148, residues 1-414)", "method": "RNA Bind-n-Seq", "form": "RNA", "sample": "in vitro", "tested at": "20 nM", "notes": "6-mer, flanks averaged, single round", "with": "150 mM LiCl", "relative to": "input library", "direction": "higher = stronger binding"}
{"Sequence": "GUUCCU", "6-mer enrichment (R)": 0.946}
{"Sequence": "GCUAAG", "6-mer enrichment (R)": 0.9}
{"Sequence": "UCAUAC", "6-mer enrichment (R)": 0.828}
{"Sequence": "AAACGC", "6-mer enrichment (R)": 0.811}
{"Sequence": "GUCGUA", "6-mer enrichment (R)": 0.966}
{"Sequence": "UGAGGU", "6-mer enrichment (R)": 1.18}
{"Sequence": "AUCUAC", "6-mer enrichment (R)": 0.826}
{"Sequence": "ACCAUC", "6-mer enrichment (R)": 0.866}
{"data": "Series 3", "SMILES": "CCS(=O)(=O)c1cc2cc(C[C@](O)(CC(C)(C)c3ccc(F)cc3C(N)=O)C(F)(F)F)[nH]c2cn1", "observed": "cell-free assay", "method": "competition with immobilised ligand", "tested at": "1 µM"}
{"target": "Mitogen-activated protein kinase 1 (MAPK1, Homo sapiens, UniProt P28482)", "remaining binding [%]": 100}
{"target": "Receptor-type tyrosine-protein kinase FLT3 (FLT3, Homo sapiens, UniProt P36888, D835Y)", "remaining binding [%]": 100}
{"target": "Atypical kinase COQ8A, mitochondrial (COQ8A, Homo sapiens, UniProt Q8NI60)", "remaining binding [%]": 92}
{"target": "Ephrin type-A receptor 6 (EPHA6, Homo sapiens, UniProt Q9UF33)", "remaining binding [%]": 100}
{"target": "Serine/threonine-protein kinase 17B (STK17B, Homo sapiens, UniProt O94768)", "remaining binding [%]": 74}
{"target": "Serine/threonine-protein kinase Nek6 (NEK6, Homo sapiens, UniProt Q9HC98)", "remaining binding [%]": 100}
{"target": "Myotonin-protein kinase (DMPK, Homo sapiens, UniProt Q09013)", "remaining binding [%]": 99}
{"target": "Tyrosine-protein kinase FRK (FRK, Homo sapiens, UniProt P42685)", "remaining binding [%]": 80}
{"target": "Mast/stem cell growth factor receptor Kit (KIT, Homo sapiens, UniProt P10721, A829P)", "remaining binding [%]": 89}
{"data": "Series 4", "target": "Fibroblast growth factor receptor 2 (FGFR2, Homo sapiens, UniProt P21802)", "observed": "enzyme activity", "mode": "inhibitor", "tested at": "0.5 µM", "relative to": "control", "chain of UniProt P21802 (whole entry, looked up)": "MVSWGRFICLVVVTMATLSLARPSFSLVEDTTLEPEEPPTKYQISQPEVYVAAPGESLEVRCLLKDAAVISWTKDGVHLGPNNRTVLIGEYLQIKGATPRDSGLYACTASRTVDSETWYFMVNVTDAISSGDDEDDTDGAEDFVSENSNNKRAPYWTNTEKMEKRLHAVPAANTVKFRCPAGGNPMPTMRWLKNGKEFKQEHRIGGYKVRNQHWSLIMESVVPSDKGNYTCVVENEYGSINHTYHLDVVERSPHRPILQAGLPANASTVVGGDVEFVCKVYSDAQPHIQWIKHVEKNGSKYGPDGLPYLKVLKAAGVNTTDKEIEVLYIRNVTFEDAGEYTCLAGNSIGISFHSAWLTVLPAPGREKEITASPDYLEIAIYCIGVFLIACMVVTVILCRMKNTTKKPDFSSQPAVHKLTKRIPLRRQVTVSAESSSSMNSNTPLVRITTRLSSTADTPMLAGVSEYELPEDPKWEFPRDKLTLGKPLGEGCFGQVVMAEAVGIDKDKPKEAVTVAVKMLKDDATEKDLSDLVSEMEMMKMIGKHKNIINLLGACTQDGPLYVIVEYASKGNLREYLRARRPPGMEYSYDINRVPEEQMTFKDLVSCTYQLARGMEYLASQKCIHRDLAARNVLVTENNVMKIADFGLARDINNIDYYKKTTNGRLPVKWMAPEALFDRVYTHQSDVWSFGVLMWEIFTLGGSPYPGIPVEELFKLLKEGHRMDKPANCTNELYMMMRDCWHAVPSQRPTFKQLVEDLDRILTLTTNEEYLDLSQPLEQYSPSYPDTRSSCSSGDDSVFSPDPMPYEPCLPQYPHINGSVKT"}
{"SMILES": "Nc1[nH]nc2nc3ccccc3nc12", "remaining activity [%]": 98.1}
{"SMILES": "O=C1NC(=O)C(c2cn(CCCO)c3ncccc23)=C1c1cnccn1", "remaining activity [%]": 103}
{"SMILES": "O=C1NC(=O)C(c2cn(CCCn3ccnc3)c3ccccc23)=C1Nc1ccccc1", "remaining activity [%]": 103}
{"SMILES": "CO[C@H]1C[C@@H]2CC[C@@H](C)[C@@](O)(O2)C(=O)C(=O)N2CCCC[C@H]2C(=O)O[C@H]([C@H](C)C[C@@H]2CC[C@@H](O)[C@H](OC)C2)CC(=O)[C@H](C)/C=C(\\C)[C@@H](O)[C@@H](OC)C(=O)[C@H](C)C[C@H](C)/C=C/C=C/C=C/1C", "remaining activity [%]": 110}
{"SMILES": "N#CC(C#N)=C(N)/C(C#N)=C/c1ccc(O)cc1", "remaining activity [%]": 102}
{"SMILES": "O=C(CCCc1ccc(-c2ccccc2F)cc1)Nc1ccc(O)cc1", "remaining activity [%]": 102}
{"SMILES": "Cc1ccc(Nc2nccc(N(C)c3ccc4c(C)n(C)nc4c3)n2)cc1S(N)(=O)=O", "remaining activity [%]": 40.2}
{"SMILES": "Nc1ccc2ncnc(NCCc3ccc(Oc4ccccc4)cc3)c2c1", "remaining activity [%]": 95.5}
{"SMILES": "O=C(Nc1cccc(Nc2cc(Nc3cccc(C(F)(F)F)c3)ncn2)c1)C1CC1", "remaining activity [%]": 105}
{"SMILES": "Cc1nc(-c2ccccc2)c(-c2ccncc2)o1", "remaining activity [%]": 108}
{"SMILES": "COc1cc2ncnc(Nc3ccc(Oc4ccccc4)cc3)c2cc1OC", "remaining activity [%]": 93.7}
{"SMILES": "O=c1c2ccccc2[nH]c(=S)n1CCN1CCC(=C(c2ccc(F)cc2)c2ccc(F)cc2)CC1", "remaining activity [%]": 101}
{"SMILES": "Nc1ncnc2n[nH]c(Nc3ccc(F)cc3)c12", "remaining activity [%]": 97.2}
{"SMILES": "NCCNc1ncc(C(N)=O)c(Nc2cccc(C(F)(F)F)c2)n1", "remaining activity [%]": 110}
{"SMILES": "C#Cc1cccc(Nc2ncnc3cc(OCCOC)c(OCCOC)cc23)c1", "remaining activity [%]": 83.4}
{"note": "Some of these lines once more (series 4):"}
{"SMILES": "Nc1ccc2ncnc(NCCc3ccc(Oc4ccccc4)cc3)c2c1", "remaining activity [%]": 95.5}
{"SMILES": "O=C(Nc1cccc(Nc2cc(Nc3cccc(C(F)(F)F)c3)ncn2)c1)C1CC1", "remaining activity [%]": 105}
